Results of several laboratories.
Each line is one published result; not all experiments were run side by side. ± marks the error that the study gave.

SMILES = COC(=O)C(c1ccccc1Cl)N1CCC2SC(=O)C=C2C1 (stereo not drawn); assay = LC-MS/MS; test system = human plasma; conditions = 50 ng/mL spiked, 45 days, -80 °C; measurement = measured concentration; value = 50.6 ± 1.2 ng/mL
SMILES = O=C(O)CC[C@H](NC(=O)N[C@@H](CCC(=O)NCCCCCNC(=O)CN1CCNCCN(Cc2cccc(C(=O)[O-])n2)CC1)C(=O)[O-])C(=O)O.[64Cu+2]; assay = radio-HPLC; test system = mice, urine; conditions = 120 min; measurement = intact complex in urine; value = > 50%
SMILES = CCCC(CCC(=O)O)NC(=O)c1ccc(O)c(OC)c1 (stereo not drawn); assay = LC-MS; test system = Sprague-Dawley rats, pooled sexes, plasma; conditions = oral, 200 mg/kg of parent drug, 1 h; scale = relative to: total peak area; measurement = metabolite peak area; value = 0.26%
SMILES = NCCC(=O)N1Cc2ccccc2-c2c(nnn2-c2cn(C3OC(CO)C(O)C3O)c(=O)[nH]c2=O)-c2ccccc21 (mixture of isomers); assay = fluorescence lifetime; test system = methanol; measurement = fractional contribution τ3; value = 0.11%
SMILES = Brc1ccccc1-c1nnc(CSc2nnnn2-c2ccccc2)o1; test system = mouse C57BL/6J male, plasma; conditions = intraperitoneal, 10 mg/kg; scale = relative to: plasma Cmax over CRFBP-CRF2 IC50; measurement = Cmax over IC50; value = 4.8 fold
SMILES = CCc1cc(Nc2nc(-c3ccc(-n4cnc(C)c4)c(F)c3)cs2)c(C)cc1C; test system = human, both sexes, plasma; conditions = oral, 400 mg, day 1, multiple dose, geometric mean; measurement = apparent terminal volume (Vz/F); value = 283000 mL
SMILES = C=CC(=O)Nc1cc(Nc2nccc(-c3cn(C4CC4)c4ccccc34)n2)c(OC)cc1N(C)CCNC; assay = radio-HPLC; test system = human male, feces; conditions = oral, 110 mg, 96 to 240 h, sample holds 16.61% dose; scale = relative to: sample radioactivity; measurement = share of radioactivity; value = 22.9%
SMILES = C[C@H](NC(=O)COC(=O)[C@H](C)NC(=O)CO)C(=O)O; test system = water; conditions = pH 8, 50 °C; measurement = depolymerization half-life; value = 36 s
SMILES = [11CH3]c1ccc2nc(C3CCC3)n(-c3ccc4[nH]ncc4c3)c2n1; test system = human male, lungs; measurement = absorbed radiation dose; value = 3.6 µSv/MBq
SMILES = CC(C)(O)c1ncc([S@](N)(=O)=NC(=O)Nc2c3c(cc4c2CCC4)CCC3)s1; test system = healthy human volunteers, plasma; conditions = oral, 200 mg once daily, day 14, spray-dried dispersion; measurement = Tmax; value = 2 h
SMILES = COc1ccc(-c2ccn(CC[C@](C)(C(=O)NO)S(C)(=O)=O)c(=O)c2)c(F)c1; test system = CF-1 mouse, female; conditions = subcutaneous, 75 mg/kg; measurement = Vss; value = 3.3 ± 0.55 L/kg
SMILES = O=C(CCc1ccc(CNC(C(=O)O)C2CCCCC2)cn1)NO (stereo not drawn); test system = healthy male humans, plasma; conditions = oral, 5 mg, single dose, geometric mean; measurement = AUC(0-t); value = 11.7 ng·h/mL
SMILES = Cn1c(=O)oc2ccc(-c3ccc(CC(C#N)NC(=O)C4CNCCCO4)c(F)c3)cc21 (stereo not drawn); test system = human volunteers, plasma; conditions = 80 mg single dose, fasted, geometric mean; measurement = AUC(0-t); value = 8270 ng·h/mL
SMILES = COc1ccc(/C=C/c2ccc(-c3ccc(C)cn3)nc2)cc1; test system = benzene; conditions = with: quinine bisulfate reference; measurement = fluorescence quantum yield; value = 0.53
SMILES = COCCOCCOCCOCCC(=O)NCc1cc(CNC(=O)CCOCCOCCOCCOC)cc(-c2cc3cc4nc(c(-c5ccc(CCC(=O)O)cc5)c5[nH]c(cc6nc(c(OC)c2[nH]3)CC6(C)C)cc5-c2cc(CNC(=O)CCOCCOCCOCCOC)cc(CNC(=O)CCOCCOCCOCCOC)c2)CC4(C)C)c1; test system = DMF; conditions = room temperature; measurement = internal conversion yield; value = 0.41
SMILES = COC[C@@H](CC(C)C)NC(=O)c1ccc(CO)c(C)c1; assay = LC-MS; test system = Sprague-Dawley rat, both sexes, rat liver microsomes; conditions = 10 µM of parent drug, 10 min, pH 7.4, with: NADPH; scale = relative to: parent drug at time zero; measurement = metabolite peak area; value = 28.5%
SMILES = CCOC(=O)c1[nH]c(C)c(/C=C/c2c(I)c(C)c3n2[B-](F)(F)[N+]2=C(C)C(I)=C(C)C2=C3c2cc(OC)cc(OC)c2)c1C; test system = THF; measurement = Stokes shift; value = 544 cm⁻¹
SMILES = CC(C)c1cnc(-c2cc(Cl)ccc2F)cc1Nc1ccncc1C(=O)NC(CO)CO; assay = item: Nausea; test system = solid tumour patients; conditions = oral, dose not given, phase I monotherapy; measurement = treatment-related adverse events; value = 16.7%
SMILES = CCNC(=O)OCc1c(COC(=O)NCC)c(-c2ccc(OC)cc2)n2c1Cc1ccccc1-2; test system = BALB/c nude mice, blood; conditions = dose not given, day 10; measurement = haemoglobin; value = 12.7 ± 0.5 g/dL
SMILES = N=C(N)NCCC[C@@H]1NC(=O)[C@H](Cc2c[nH]c3ccccc23)NC(=O)[C@@H](CC2CCCCC2)NC(=O)[C@@H]2CCCN2C(=O)[C@@H](NC(=O)CCc2ccccc2)CCCNC1=O; assay = two-compartment model; test system = C57BL/6J mouse, plasma brain; conditions = subcutaneous, 1 mg/kg single dose; measurement = K21; value = 0.61 h⁻¹
SMILES = CC1=C(/C=C/C(=O)N2CCN(C(N)=O)CC2)C(C)(C)CCC1; test system = mouse female, retina; conditions = oral, 120 mg/kg, single dose; measurement = concentration in retina; value = 30 µM
SMILES = Cc1cccc(Cn2ncc3c4cc(F)c(CN(C)C)cc4n(C)c3c2=O)n1; test system = rd10 mouse, aged P70, retina; conditions = intravitreal, 1 µM final vitreous; measurement = retinal concentration; value = < 5 ng/g
SMILES = CC12CC(c3ccc(S(C)(=O)=O)cc3)C3=C4CCC(=O)C=C4CCC3C1CCC2(O)C(F)(F)C(F)(F)F (stereo not drawn); test system = human, plasma; conditions = intravenous microdose, 15.7 µg, median; measurement = tlast; value = 215 h
SMILES = C[C@H](CN(C)Cc1ccccc1)NC(=O)c1ccc(-c2noc(C(F)(F)[18F])n2)cc1; assay = microPET; test system = mouse; conditions = 2 min after injection; measurement = brain uptake; value = 4.77 ± 0.24 %ID/cc
SMILES = CCCC[C@H](NC(=O)[C@H](CC(C)C)N(C)C(=O)CNC(=O)[C@@H](NC(=O)[C@H](Cc1ccccc1)NC(=O)[C@H](CCCCN)NC(=O)[C@@H](N)CC(=O)O)C(C)C)C(N)=O; test system = anesthetized Gottingen minipig; conditions = subcutaneous, 1 µg/kg; scale = relative to: baseline; measurement = mean arterial pressure; value = -0.62 ± 0.42%
SMILES = NC[C@@H](C(=O)Nc1ccc(-c2cn[nH]c2)cc1)c1ccccc1; assay = OECD 405 eye irritation; test system = New Zealand White rabbit, eye; conditions = topical, 0.1%, 96 h (day 5); scale = direction not given; measurement = total eye irritation score; value = 0
SMILES = C=CC(=O)Nc1cc(Nc2nccc(-c3cn(C4CC4)c4ccccc34)n2)c(OC)cc1NC; assay = LC-RAM/HRMS; test system = human male, plasma; conditions = oral, 110 mg, 4 h; scale = relative to: total radioactivity; measurement = share of radioactivity; value = 1.67%
SMILES = CCCC[C@H](NC(=O)CNC(=O)CNC(=O)CN1CCN(CC(=O)O)CCN(CC(=O)O)CCN(CC(=O)O)CC1)C(=O)N[C@H]1CC(=O)NCCCC[C@@H](C(N)=O)NC(=O)[C@H](Cc2c[nH]c3ccccc23)NC(=O)[C@H](CCCNC(=N)N)NC(=O)[C@@H](Cc2ccccc2)NC(=O)[C@H](Cc2c[nH]cn2)NC1=O [copper-64 labelled]; test system = female C57 mouse, B16/F1 melanoma; conditions = intravenous, 0.037 MBq, 24 h; scale = relative to: tumour over liver; measurement = uptake ratio; value = 0.82
SMILES = O=C([O-])CN1CCN(CC(=O)[O-])CCN(C(CCC(=O)NCCCCCN(CCCC[C@H](NC(=O)N[C@@H](CCC(=O)O)C(=O)O)C(=O)O)C(=O)c2ccc(I)cc2)C(=O)O)CCN(CC(=O)[O-])CC1.[68Ga+3] (stereo partly drawn); test system = healthy volunteers and patients; conditions = dose not given; measurement = vital signs and laboratory parameters; value = no effect
SMILES = CC[C@H](C)[C@@H]1NC(=O)[C@H](CCCNC(=N)N)NC(=O)[C@H](CC(=O)O)NC(=O)[C@H](CC(C)C)NC(=O)[C@H](CCCCN)NC(=O)[C@H](CC(C)C)NC(=O)CNC(=O)[C@H](Cc2ccccc2)NC(=O)[C@@H](NC(=O)CNC(=O)[C@H](CCCCN)NC(=O)[C@H](CO)NC(=O)[C@H](CC(C)C)NC(=O)CNC(=O)[C@H](CCCCN)NC(=O)[C@H](CCCCN)NC(=O)[C@H](CC(N)=O)NC(=O)[C@H](C)NC(=O)CNC(=O)[C@H](CCCCN)NC(=O)[C@H](Cc2ccc(O)cc2)NC(=O)[C@H](CCCCN)NC(=O)[C@H](CCCNC(=N)N)NC(=O)[C@H](C)NC(=O)[C@H](CC(N)=O)NC(=O)[C@@H]2CCCN2C(=O)[C@H](Cc2c[nH]cn2)NC(=O)[C@H](CCC(=O)O)NC(=O)[C@H](CCC(N)=O)NC(=O)[C@@H](N)CC(C)C)CSSC[C@@H](C(=O)O)NC(=O)CNC(=O)[C@H](CC(C)C)NC(=O)CNC(=O)[C@H](CO)NC(=O)[C@H](CCSC)NC(=O)[C@H](CO)NC(=O)CNC1=O; test system = healthy adult men, plasma; conditions = subcutaneous, 150 µg CNP/kg, single dose, with: TransCon CNP prodrug; measurement = AUC extrapolated percentage; value = 10.5%

A few entries again:
SMILES = CC(C)c1cnc(-c2cc(Cl)ccc2F)cc1Nc1ccncc1C(=O)NC(CO)CO; assay = item: Nausea; test system = solid tumour patients; conditions = oral, dose not given, phase I monotherapy; measurement = treatment-related adverse events; value = 16.7%
SMILES = CCNC(=O)OCc1c(COC(=O)NCC)c(-c2ccc(OC)cc2)n2c1Cc1ccccc1-2; test system = BALB/c nude mice, blood; conditions = dose not given, day 10; measurement = haemoglobin; value = 12.7 ± 0.5 g/dL
SMILES = N=C(N)NCCC[C@@H]1NC(=O)[C@H](Cc2c[nH]c3ccccc23)NC(=O)[C@@H](CC2CCCCC2)NC(=O)[C@@H]2CCCN2C(=O)[C@@H](NC(=O)CCc2ccccc2)CCCNC1=O; assay = two-compartment model; test system = C57BL/6J mouse, plasma brain; conditions = subcutaneous, 1 mg/kg single dose; measurement = K21; value = 0.61 h⁻¹
SMILES = CC1=C(/C=C/C(=O)N2CCN(C(N)=O)CC2)C(C)(C)CCC1; test system = mouse female, retina; conditions = oral, 120 mg/kg, single dose; measurement = concentration in retina; value = 30 µM
SMILES = Cc1cccc(Cn2ncc3c4cc(F)c(CN(C)C)cc4n(C)c3c2=O)n1; test system = rd10 mouse, aged P70, retina; conditions = intravitreal, 1 µM final vitreous; measurement = retinal concentration; value = < 5 ng/g
